Assay results from different studies.
Every numbered part comes from another study and shows a few of its results, in no order.

Sample 1 — technique: protein binding microarray; form: double-stranded DNA, one strand shown; sample: in vitro; tested at: not given; relative to: not given; reading: higher = stronger binding
Target: Histone acetyltransferase KAT6A, winged helix 1, GST fusion (KAT6A, Homo sapiens, UniProt Q92794, residues 1-85)
Setting: 8-mer, flanks averaged, mean of 2 arrays, mostly near background
Construct (chain): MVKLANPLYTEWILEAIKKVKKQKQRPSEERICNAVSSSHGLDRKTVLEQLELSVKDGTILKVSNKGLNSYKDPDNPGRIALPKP
Oligonucleotide	E-score
CCCCCGAA	0.0509
GCCGCTTA	0.339
AATAAGAC	-0.214
AGTTCGCC	0.00066
CCCGAAAA	-0.0442
GAACACGA	-0.184
CAACAAAG	-0.184
ATTCGGAA	0.0178
ATCGGGTG	0.177
AACTGCAA	-0.156
CAAAACCA	-0.0122
CAGTAAGG	0.0506
ACTAGCTG	-0.133
ATACCGAC	0.165
ATAGTTTA	-0.0671
ACGTCGAC	-0.13
CATATTAC	-0.00115
ATATTTAC	0.0379

Sample 2 — technique: RNA Bind-n-Seq; form: RNA; sample: in vitro; tested at: 100 nM; relative to: input RNA pool; reading: higher = stronger binding
Target: RING finger protein unkempt homolog, zinc fingers 1-6, SBP tag (UNK, Homo sapiens, UniProt Q9C0B0, residues 30-357)
Chain of UniProt Q9C0B0 (30-357, looked up): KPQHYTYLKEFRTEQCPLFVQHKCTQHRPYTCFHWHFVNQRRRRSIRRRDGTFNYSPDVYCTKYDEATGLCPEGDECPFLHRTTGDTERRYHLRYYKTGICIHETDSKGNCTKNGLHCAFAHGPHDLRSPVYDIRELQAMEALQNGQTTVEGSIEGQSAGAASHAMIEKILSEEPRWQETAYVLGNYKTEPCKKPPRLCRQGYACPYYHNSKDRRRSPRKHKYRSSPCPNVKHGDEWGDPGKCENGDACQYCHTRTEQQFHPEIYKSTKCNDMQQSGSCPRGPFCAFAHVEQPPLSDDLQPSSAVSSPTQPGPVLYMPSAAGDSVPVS
Setting: RNA with constant flanks, vertebrate orthologous sites, ends assumed
Oligonucleotide	bound/input enrichment [ratio]
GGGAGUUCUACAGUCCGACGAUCGAACUAAAGGAGUUAGCAUCUUUAUUUUUGUAUCAAAGAUAAAGAUUAUUUUGAAAUUAUUAAGAUUUUUACACAACUCUGAAAUCUGUUGCUUUUGUAAACAAGUUGUUUAAUCUUAGGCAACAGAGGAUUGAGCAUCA	0.583
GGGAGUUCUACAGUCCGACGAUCUCCCAGCACUUUGAUAAAAAGUGUGGACUGGUUGCUUGUAUUUUCUUUAUUCUUUUUAAUUGGUUUUAUUAUGUAUGCUACCAUUCGAAAUGAGAGUAUUAGGUGGCUCAUUCCAGGACACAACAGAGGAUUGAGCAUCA	0.554
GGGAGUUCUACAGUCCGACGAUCAAUGUGUUAUUUAUUGAAGAUAAUUUUGUGCGAAAGACUGUGUCCCAAUUUAAAAUUGAGUUAGUUGUUUGAUUCCUAUUUGUUGUGGUAUAGUUUUCUUUUUUCAUUAUUGAAAAUAAACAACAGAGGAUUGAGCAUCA	0.661
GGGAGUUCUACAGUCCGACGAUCUAUUUAAAAUACAUUUAGUAGUAUUUAAUAACCUCAUUCCUAGUUCCUUGUUCAUUAAAGUAGCUCCUUUCUAUUAUUACCAUUUUUAACAGUAUGAACAAGUUGAAGGUUUGUGCAGUACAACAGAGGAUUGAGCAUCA	1.8
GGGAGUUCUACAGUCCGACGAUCCCAAAGUUACAAAGUUGGAAUUUGCUGAUUUUUGUUUCGUUUUCUUUUUGUUGUUGAAGGGAGAACCCCUGGCGUUCUACAUGAAACUAACUAGUAGUUUUUGAGAAUCCUAUAAUAUGUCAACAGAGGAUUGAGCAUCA	0.182
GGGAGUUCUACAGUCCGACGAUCGCAAUGAAAAACCAGUCCUUCUCCCAGCCCCCCUUUCACUAGGAGAUACAAACACUACCGUAGAAGAGCAAUUUAACUCAAUAAAUUUAUCUUUUCAGGAUGAUCCAGACUCCAGUACCACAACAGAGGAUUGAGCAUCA	0.776
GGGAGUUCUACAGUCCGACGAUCGAAUACUCCAAAUCCUAAAUUACACUGAGAUCUAGACCUUCAUUUGGCAGGGUCAGGCCAUUGGAUGGUGUUGCUGUAUUGUCUUGUCGUGUUUUUAAAAUCUGUGCACUUUGUCCAAAGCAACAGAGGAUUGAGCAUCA	0.583
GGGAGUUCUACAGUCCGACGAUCUGCUGUUAAUGCACUGUAUCCCAGGCAUCGUCUGACCUUAGUGUAAUCUAGGAGAUUUUAUAGUUUUAUUUUAAUGAAGUCUGGAUUGAGGCAAAGCUGGUAGGAGUACGUAGUCUUUUACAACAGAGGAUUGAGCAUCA	4.11

Sample 3 — technique: universal PBM; form: double-stranded DNA, one strand shown; sample: in vitro; tested at: 600 nM; reading: higher = stronger binding
Target: Sal-like protein 4, full length isoform A (SALL4, Homo sapiens, UniProt Q9UJQ4, residues 1-1053)
Chain of UniProt Q9UJQ4 (whole entry, looked up): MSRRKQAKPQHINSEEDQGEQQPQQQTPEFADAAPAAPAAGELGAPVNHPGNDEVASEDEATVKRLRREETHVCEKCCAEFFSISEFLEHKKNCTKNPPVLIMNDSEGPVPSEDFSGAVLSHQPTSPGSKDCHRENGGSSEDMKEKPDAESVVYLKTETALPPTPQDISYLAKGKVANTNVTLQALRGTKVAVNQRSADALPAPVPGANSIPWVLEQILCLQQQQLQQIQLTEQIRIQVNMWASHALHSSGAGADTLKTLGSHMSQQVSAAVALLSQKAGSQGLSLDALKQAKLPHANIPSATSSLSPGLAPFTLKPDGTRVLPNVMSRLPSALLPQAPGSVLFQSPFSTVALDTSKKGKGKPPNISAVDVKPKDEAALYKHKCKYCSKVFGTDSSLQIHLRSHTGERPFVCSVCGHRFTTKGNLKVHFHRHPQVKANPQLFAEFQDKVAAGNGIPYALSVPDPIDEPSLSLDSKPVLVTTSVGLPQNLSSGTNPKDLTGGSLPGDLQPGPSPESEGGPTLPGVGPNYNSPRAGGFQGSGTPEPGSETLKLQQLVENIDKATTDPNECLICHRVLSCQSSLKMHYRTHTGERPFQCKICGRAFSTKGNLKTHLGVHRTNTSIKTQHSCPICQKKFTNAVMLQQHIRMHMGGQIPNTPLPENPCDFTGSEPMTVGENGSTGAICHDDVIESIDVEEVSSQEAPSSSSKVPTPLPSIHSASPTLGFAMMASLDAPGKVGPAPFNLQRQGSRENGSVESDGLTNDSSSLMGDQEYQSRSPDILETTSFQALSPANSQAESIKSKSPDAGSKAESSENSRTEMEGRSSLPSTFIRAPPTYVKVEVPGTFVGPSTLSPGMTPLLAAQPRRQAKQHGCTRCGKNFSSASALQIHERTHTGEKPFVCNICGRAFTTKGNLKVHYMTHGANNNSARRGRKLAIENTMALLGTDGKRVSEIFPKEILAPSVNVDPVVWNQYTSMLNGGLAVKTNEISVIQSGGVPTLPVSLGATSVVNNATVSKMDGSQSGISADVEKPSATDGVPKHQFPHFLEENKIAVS
Setting: 8-mer, flanks averaged, mean of replicates
Oligonucleotide	E-score
AACGTTTA	0.173
GCCTCTGA	-0.19
GAAGATAA	0.283
GGACTCAC	-0.208
CTTCCTTA	0.0398
AAGCTAAG	-0.134
AGTACTCC	-0.215
ATACCTAA	0.275
GCCCCTAA	-0.243
AAGACGTC	-0.0679
CGCGTGGC	-0.234
CAGCAGGA	-0.0868
CCTGCCCA	-0.238
AACTAATG	0.237
CCCCCCGA	-0.272
GCTCAGCC	-0.316
GAAGACAC	-0.0914
TCAATCGA	0.113
AGTATTGC	0.119
AATTTTGT	0.312
ATAAGAGC	0.125
GGTAAGCA	-0.0892
GTGAGTAA	-0.0195
GTCGCGAA	-0.125
GTGGGGGA	-0.134

Sample 4 — technique: protein-binding microarray; form: double-stranded DNA, one strand shown; sample: in vitro; tested at: 2540 nM top; setting: 60-bp whole probe; added: salmon DNA 0.4 mg/ml; relative to: random background probes; reading: higher = stronger binding; shared flanks, not repeated: GCCTAGCAC … GTCTTGATTCGCTTGACGCTGCTG
Target: Interferon regulatory factor 3, full length, phosphomimetic (IRF3, Homo sapiens, UniProt Q14653, residues 1-427, S386D/S396D/S398D/S402D/T404D/S405D)
Chain of UniProt Q14653 (whole entry, unmodified, looked up): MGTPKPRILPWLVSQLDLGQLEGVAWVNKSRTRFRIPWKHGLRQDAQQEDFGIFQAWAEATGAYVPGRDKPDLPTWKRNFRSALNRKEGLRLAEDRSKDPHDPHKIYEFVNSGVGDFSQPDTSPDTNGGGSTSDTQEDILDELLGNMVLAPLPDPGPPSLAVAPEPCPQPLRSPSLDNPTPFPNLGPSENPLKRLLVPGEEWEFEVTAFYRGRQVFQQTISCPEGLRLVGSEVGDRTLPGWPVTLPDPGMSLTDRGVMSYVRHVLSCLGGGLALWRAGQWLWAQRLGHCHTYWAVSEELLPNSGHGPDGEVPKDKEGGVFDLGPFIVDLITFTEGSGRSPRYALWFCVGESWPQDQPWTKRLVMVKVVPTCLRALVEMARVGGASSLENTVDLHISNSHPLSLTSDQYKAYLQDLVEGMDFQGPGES
Oligonucleotide	fitted relative affinity [z-score]
TTAGATATCGGGTTTTGATTAGTGCTA	0.364
GACGGACTGGGGTTTCAGGACGTGCTA	-0.357
TTAGGTCTCCTACTTCTTTAGTGCTAG	1.75
TTAGGTTTAGGTATCGGTTAGTGCTAG	1.7
GACGGACTGCTCATCCTGACGTGCTAG	-0.322
GACGGTCTCAGTCTCGGGACGTGCTAG	1.35
TTAGGGCTGGGTCTCGGTTAGTGCTAG	-1.14
TTAGGTATTGGGTTTCGGTTAGTGCTA	2.85
GACGATTTCAGACTGGAAACGTGCTAG	1.18
CTGTGTACATCTCTCTTAAAGTGCTAG	0.797
TTAGAACTGGGGTATCGATGAGTGCTA	-0.867
GACGGACTGCTTTTCCTAACGTGCTAG	0.29
ATCATTTTTGCTTACGATGCGTGCTAG	1.03
TTAGGACGGGACACTGGGTTAGTGCTA	-0.827
TTAGGTCTCAGACTGGGTTAGTGCTAG	-0.153
CTTTATGTACTCTCTCCATGTGTGCTA	1.24
TTACGACTGGGGACTGGGTTAGTGCTA	-0.987
GACGGACTGGACTATCGGGGCGTGCTA	-0.573

For quick reference, copied from above (sample 2):
Oligonucleotide	bound/input enrichment [ratio]
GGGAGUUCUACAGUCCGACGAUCGAACUAAAGGAGUUAGCAUCUUUAUUUUUGUAUCAAAGAUAAAGAUUAUUUUGAAAUUAUUAAGAUUUUUACACAACUCUGAAAUCUGUUGCUUUUGUAAACAAGUUGUUUAAUCUUAGGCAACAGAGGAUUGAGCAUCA	0.583
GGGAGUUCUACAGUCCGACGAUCUCCCAGCACUUUGAUAAAAAGUGUGGACUGGUUGCUUGUAUUUUCUUUAUUCUUUUUAAUUGGUUUUAUUAUGUAUGCUACCAUUCGAAAUGAGAGUAUUAGGUGGCUCAUUCCAGGACACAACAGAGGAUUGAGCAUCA	0.554
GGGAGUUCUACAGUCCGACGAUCAAUGUGUUAUUUAUUGAAGAUAAUUUUGUGCGAAAGACUGUGUCCCAAUUUAAAAUUGAGUUAGUUGUUUGAUUCCUAUUUGUUGUGGUAUAGUUUUCUUUUUUCAUUAUUGAAAAUAAACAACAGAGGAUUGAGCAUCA	0.661
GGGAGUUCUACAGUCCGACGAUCUAUUUAAAAUACAUUUAGUAGUAUUUAAUAACCUCAUUCCUAGUUCCUUGUUCAUUAAAGUAGCUCCUUUCUAUUAUUACCAUUUUUAACAGUAUGAACAAGUUGAAGGUUUGUGCAGUACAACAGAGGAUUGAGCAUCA	1.8
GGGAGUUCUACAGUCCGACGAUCCCAAAGUUACAAAGUUGGAAUUUGCUGAUUUUUGUUUCGUUUUCUUUUUGUUGUUGAAGGGAGAACCCCUGGCGUUCUACAUGAAACUAACUAGUAGUUUUUGAGAAUCCUAUAAUAUGUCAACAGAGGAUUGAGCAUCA	0.182
